Assay results pooled from the literature.
Lines come from different studies, so protocols differ. Numbers after ± are the reported error.
Organism: Salmonella typhimurium

| Structure (SMILES) | test | test system | conditions | how to read | measurement | result |
| --- | --- | --- | --- | --- | --- | --- |
| CC(=O)N1CCC(C(=O)N2CCN3C(=O)c4cc(-c5ccccc5)ccc4NC(=O)C3C2)CC1 (stereo not drawn) |  | TA1537 | 1581 µg/plate |  | revertants per plate | 10.5 |
| COc1cccc(-c2n[nH]c(SCc3ccccn3)n2)c1OC | Ames test, preincubation | TA100 | 0.13 mg/plate, with rat liver S9 |  | revertant colonies per plate | 145 |
| O=[N+]([O-])c1ccc(N2CCN(CCC(O)c3ccc(F)cc3)CC2)c(C(F)(F)F)c1 (stereo not drawn) | SOS/umu test | TA1535/pSK1002 | 0.004 mg/mL, 4 h, without S9, full range |  | survival | 105% |
| Cc1cc(C(=O)NC(C)(C)COc2cccc3c2C(N)=NS(=O)(=O)N3)cc(C)n1 | Ames test, initial | TA1537 | 1500 µg/plate | baseline: solvent control | revertant ratio | 1.2 |
| O=NN1CCN(C2CCCC2)CC1 | mutagenicity, Ames plate incorporation | TA1537 | 150 µg/plate, 3 d, without S9, methanol |  | revertant colonies per plate | 9.3 ± 5 |
| OC(CCN1CC=C(c2ccc(F)cc2)CC1)c1ccc(F)c2ccccc12 (stereo not drawn) | SOS response, SOS/umu test | TA1535/pSK1002, TGA medium | 0.001 mg/mL, 4 h, with: rat liver S9 | baseline: untreated | induction factor | 1.4 |
| CN(CC(C)(C)C)N=O | mutagenicity, Ames plate incorporation | TA1537 | 2500 µg/plate, without S9, methanol |  | revertant colonies per plate | 5.3 ± 1 |
| N#C[C@@]1(n2ccc(N)nc2=O)O[C@H](CO)[C@@H](O)[C@H]1O |  | TA100 | 1.2 µM, without S9 | baseline: control | viability | 106% |
| O=[N+]([O-])c1ccc(N2CCC(NCCC(O)c3ccc(F)c4ccccc34)CC2)c(C(F)(F)F)c1 (stereo not drawn) | genotoxicity, SOS/umu test | TA1535/pSK1002 | 0.002 mg/mL, 4 h, without S9, lower range |  | induction factor | 0.6 |
| CN(N=O)c1ccc(F)cc1 | mutagenicity, Ames plate incorporation | TA98 | 2500 µg/plate, 3 d, without S9, methanol |  | revertant colonies per plate | 24 ± 6 |
| O=[N+]([O-])c1ccc(NC2CCNCC2)c(C(F)(F)F)c1 | SOS/umu test | TA1535/pSK1002, TGA medium | 0.25 mg/mL, 4 h, with: 10% rat liver S9 |  | survival | 86.4% |
| COCCN(CCOC)N=O | mutagenicity, Ames plate incorporation | TA1535 | 1500 µg/plate, 3 d, without S9, methanol |  | revertant colonies per plate | 17.7 ± 4 |

A few entries again:
| Structure (SMILES) | test | test system | conditions | how to read | measurement | result |
| --- | --- | --- | --- | --- | --- | --- |
| O=[N+]([O-])c1ccc(NC2CCNCC2)c(C(F)(F)F)c1 | SOS/umu test | TA1535/pSK1002, TGA medium | 0.25 mg/mL, 4 h, with: 10% rat liver S9 |  | survival | 86.4% |
